Assay results of several laboratories.
Lines come from different studies, so protocols differ. ± gives the spread as reported.
Transcriptional regulator ComR: Transcriptional regulator ComR (Streptococcus mutans serotype c, UniProt Q8DWI6)
P2RY2: P2Y purinoceptor 2 (P2RY2, Homo sapiens, UniProt P41231)
UniProt P41231, sequence (whole entry, looked up): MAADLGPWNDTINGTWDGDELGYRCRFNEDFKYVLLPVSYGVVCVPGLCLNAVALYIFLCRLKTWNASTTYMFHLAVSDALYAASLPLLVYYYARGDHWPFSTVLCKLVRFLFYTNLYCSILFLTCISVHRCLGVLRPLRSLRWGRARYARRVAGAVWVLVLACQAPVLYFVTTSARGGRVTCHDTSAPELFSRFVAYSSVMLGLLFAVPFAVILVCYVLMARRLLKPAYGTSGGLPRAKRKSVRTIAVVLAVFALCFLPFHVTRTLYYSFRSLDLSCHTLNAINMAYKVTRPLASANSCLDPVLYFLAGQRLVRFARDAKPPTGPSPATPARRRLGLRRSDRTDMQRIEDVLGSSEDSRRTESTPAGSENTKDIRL
P2Y purinoceptor 1: P2Y purinoceptor 1 (Meleagris gallopavo, UniProt P49652)
UniProt P49652, sequence (whole entry, looked up): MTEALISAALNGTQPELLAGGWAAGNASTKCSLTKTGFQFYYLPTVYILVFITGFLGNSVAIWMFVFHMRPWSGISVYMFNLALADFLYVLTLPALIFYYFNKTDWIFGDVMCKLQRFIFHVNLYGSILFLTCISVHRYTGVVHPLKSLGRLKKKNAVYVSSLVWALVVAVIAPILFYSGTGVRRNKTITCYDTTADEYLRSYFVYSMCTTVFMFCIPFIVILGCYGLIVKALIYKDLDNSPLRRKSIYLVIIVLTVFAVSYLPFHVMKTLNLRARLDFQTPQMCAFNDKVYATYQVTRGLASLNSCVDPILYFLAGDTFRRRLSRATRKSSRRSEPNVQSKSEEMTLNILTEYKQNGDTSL
ESR1: Estrogen receptor (ESR1, Homo sapiens, UniProt P03372)
UniProt P34972, sequence (whole entry, unmodified, looked up): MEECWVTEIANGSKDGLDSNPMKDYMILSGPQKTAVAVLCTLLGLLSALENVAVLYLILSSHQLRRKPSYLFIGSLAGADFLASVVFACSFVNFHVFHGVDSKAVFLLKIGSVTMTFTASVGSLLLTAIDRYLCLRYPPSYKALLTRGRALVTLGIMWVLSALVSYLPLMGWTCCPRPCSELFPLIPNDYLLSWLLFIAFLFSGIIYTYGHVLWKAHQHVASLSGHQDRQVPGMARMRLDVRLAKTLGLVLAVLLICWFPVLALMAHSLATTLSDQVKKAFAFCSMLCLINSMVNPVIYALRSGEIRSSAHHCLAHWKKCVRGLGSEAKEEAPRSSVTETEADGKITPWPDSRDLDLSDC
UniProt P03372, sequence (whole entry, looked up): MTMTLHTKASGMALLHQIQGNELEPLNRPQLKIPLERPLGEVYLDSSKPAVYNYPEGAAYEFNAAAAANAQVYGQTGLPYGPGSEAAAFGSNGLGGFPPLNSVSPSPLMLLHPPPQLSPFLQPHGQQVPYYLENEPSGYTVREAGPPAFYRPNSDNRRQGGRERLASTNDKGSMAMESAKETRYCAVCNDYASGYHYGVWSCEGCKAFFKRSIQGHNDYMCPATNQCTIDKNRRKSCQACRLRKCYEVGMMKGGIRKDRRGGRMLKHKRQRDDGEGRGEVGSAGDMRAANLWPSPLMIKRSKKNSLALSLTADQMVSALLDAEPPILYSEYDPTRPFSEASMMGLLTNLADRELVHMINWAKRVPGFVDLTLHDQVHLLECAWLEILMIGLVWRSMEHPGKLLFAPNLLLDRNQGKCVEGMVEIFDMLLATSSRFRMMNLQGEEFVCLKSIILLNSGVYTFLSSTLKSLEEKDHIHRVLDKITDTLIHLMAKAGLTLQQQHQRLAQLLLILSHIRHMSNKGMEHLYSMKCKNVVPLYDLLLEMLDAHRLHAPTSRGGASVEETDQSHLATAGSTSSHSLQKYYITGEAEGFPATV
UniProt P61169, sequence (whole entry, looked up): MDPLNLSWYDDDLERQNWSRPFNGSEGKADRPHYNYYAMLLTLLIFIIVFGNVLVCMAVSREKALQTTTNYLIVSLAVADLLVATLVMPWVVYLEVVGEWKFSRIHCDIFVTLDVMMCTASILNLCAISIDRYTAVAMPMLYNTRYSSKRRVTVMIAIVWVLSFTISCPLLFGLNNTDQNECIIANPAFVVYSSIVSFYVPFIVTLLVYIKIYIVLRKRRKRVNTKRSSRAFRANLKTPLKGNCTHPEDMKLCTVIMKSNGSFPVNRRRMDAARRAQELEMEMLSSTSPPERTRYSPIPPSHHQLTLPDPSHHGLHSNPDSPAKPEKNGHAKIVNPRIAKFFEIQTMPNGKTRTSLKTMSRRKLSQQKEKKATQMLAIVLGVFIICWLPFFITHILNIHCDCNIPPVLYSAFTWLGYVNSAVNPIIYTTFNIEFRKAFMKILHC
UniProt A7N6S2, sequence (whole entry, looked up): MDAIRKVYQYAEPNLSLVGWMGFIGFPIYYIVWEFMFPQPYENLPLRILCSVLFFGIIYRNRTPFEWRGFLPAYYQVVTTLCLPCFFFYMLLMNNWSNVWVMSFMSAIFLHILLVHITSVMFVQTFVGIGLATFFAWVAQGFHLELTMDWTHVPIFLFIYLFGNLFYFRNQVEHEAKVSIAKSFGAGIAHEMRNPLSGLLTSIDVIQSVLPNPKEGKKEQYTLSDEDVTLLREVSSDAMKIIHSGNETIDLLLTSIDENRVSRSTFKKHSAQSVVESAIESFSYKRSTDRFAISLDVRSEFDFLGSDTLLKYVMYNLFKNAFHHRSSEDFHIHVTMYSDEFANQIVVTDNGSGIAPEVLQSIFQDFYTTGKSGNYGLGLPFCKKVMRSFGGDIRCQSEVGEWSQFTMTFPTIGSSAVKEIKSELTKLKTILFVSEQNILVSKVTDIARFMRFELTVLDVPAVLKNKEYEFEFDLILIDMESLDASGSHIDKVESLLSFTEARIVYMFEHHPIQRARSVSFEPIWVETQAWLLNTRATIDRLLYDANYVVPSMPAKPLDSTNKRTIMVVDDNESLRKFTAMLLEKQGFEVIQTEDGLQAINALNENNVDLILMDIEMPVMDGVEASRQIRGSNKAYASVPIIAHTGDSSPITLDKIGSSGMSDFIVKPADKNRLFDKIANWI
UniProt P08913, sequence (whole entry, looked up): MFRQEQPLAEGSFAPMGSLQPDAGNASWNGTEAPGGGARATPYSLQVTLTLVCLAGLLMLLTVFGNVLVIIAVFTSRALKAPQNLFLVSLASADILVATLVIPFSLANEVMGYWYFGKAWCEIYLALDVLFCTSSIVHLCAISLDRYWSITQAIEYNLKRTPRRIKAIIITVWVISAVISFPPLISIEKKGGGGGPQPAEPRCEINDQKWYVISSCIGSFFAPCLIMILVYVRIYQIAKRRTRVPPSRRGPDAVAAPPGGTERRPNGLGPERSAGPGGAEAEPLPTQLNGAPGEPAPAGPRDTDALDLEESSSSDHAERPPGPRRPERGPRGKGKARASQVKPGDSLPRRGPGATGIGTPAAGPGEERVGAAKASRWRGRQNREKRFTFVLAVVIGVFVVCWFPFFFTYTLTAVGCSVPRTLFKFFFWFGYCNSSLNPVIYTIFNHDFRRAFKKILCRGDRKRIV
UniProt Q9HBX9, sequence (whole entry, looked up): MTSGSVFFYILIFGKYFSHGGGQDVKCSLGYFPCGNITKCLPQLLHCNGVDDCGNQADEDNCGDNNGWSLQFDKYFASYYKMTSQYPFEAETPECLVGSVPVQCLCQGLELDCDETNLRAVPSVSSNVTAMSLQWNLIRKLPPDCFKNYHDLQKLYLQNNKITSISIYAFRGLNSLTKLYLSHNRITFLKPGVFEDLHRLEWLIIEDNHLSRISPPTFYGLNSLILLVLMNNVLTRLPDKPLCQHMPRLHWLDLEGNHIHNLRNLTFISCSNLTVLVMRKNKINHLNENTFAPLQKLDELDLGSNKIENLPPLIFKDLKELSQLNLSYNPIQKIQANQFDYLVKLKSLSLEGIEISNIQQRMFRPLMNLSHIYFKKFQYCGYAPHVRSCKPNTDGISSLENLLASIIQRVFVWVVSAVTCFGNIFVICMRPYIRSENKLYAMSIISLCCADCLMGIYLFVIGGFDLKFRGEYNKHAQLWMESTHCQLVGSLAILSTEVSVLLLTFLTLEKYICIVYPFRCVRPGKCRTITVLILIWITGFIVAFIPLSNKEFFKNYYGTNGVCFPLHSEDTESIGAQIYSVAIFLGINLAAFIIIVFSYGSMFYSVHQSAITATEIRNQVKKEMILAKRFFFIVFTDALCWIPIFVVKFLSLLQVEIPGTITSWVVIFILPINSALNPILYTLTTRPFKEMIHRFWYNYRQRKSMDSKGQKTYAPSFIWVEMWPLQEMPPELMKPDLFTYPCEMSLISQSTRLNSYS
UniProt P18507, sequence (whole entry, looked up): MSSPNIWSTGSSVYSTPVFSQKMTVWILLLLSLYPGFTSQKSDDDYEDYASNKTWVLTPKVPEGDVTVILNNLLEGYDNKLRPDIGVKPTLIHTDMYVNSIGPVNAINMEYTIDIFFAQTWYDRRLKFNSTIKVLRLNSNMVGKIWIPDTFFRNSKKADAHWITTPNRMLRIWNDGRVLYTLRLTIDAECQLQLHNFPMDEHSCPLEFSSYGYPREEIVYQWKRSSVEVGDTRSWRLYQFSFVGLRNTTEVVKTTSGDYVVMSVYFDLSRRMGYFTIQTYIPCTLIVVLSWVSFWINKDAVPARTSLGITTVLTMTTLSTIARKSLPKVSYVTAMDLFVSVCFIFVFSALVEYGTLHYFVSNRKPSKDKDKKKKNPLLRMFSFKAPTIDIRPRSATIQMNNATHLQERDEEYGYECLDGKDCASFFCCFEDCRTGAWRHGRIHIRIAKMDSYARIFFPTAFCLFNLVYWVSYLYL
UniProt P18505, sequence (whole entry, looked up): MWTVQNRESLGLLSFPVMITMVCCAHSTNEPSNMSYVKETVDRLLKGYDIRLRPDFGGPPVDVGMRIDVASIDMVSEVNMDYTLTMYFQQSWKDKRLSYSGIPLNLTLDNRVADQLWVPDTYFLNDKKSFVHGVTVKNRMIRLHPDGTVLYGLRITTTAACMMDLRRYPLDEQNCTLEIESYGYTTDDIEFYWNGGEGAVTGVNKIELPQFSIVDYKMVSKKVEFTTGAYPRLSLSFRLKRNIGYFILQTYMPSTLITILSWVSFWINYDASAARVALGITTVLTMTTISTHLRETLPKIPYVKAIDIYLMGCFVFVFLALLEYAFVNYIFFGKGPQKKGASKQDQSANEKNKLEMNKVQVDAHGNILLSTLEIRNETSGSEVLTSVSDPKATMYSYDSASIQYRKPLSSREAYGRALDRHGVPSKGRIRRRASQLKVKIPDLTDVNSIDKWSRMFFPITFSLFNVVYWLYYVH

| Molecule | target | test | test system | conditions | EC50 [nM] |
| --- | --- | --- | --- | --- | --- |
| CC(C)C[C@H](NC(=O)CN)C(=O)N[C@@H](CC(=O)O)C(=O)N[C@@H](Cc1c[nH]c2ccccc12)C(=O)N[C@@H](Cc1c[nH]c2ccccc12)C(=O)N[C@@H](CO)C(=O)N[C@H](C(=O)O)C(C)C | Transcriptional regulator ComR | – | Streptococcus mutans | – | 2400 |
| CC(C)C[C@H](NC(=O)[C@@H](N)[C@@H](C)O)C(=O)N[C@@H](CCC(N)=O)C(=O)N1CCC[C@H]1C(=O)N1CCC[C@H]1C(=O)N[C@@H](C)C(=O)N[C@@H](CO)C(=O)N[C@@H](CO)C(=O)N[C@@H](CCCNC(=N)N)C(=O)N[C@@H](CCCNC(=N)N)C(=O)N[C@@H](CCCNC(=N)N)C(=O)N[C@@H](Cc1c[nH]cn1)C(=O)N[C@@H](Cc1ccccc1)C(=O)N[C@@H](Cc1c[nH]cn1)C(=O)N[C@@H](Cc1c[nH]cn1)C(=O)N[C@@H](C)C(=O)N[C@@H](CC(C)C)C(=O)N1CCC[C@H]1C(=O)N1CCC[C@H]1C(=O)N[C@@H](C)C(=O)N[C@@H](CCCNC(=N)N)C(=O)O | C3AR1 (Homo sapiens, UniProt Q16581) | β-arrestin recruitment, agonist | – | – | 10300 |
| CCCCC/C=C\C/C=C\C/C=C\C/C=C\CCCC(=O)OC(CO)CO | CNR2 (Homo sapiens, UniProt P34972, Q63R) | β-arrestin 2 recruitment, agonist, BRET | HEK293 coexpressing GRK5 | – | 1510 |
| CC(C)C[C@H](NC(=O)[C@H](CO)NC(=O)[C@H](Cc1c[nH]c2ccccc12)NC(=O)[C@H](Cc1ccccc1)NC(=O)[C@H](CC(=O)O)NC(=O)[C@H](CC(C)C)NC(=O)CN)C(=O)O | Transcriptional regulator ComR | – | Streptococcus mutans | – | 5200 |
| C[C@]1(Cc2ccccc2)COc2cc(C(=O)N3CCCCC3)ccc21 | CNR2 (Homo sapiens, UniProt P34972) | GTPγS binding, agonist | – | cell membranes | 961 |
| CC[C@H](C)[C@H](NC(=O)CN)C(=O)N[C@@H](CC(=O)O)C(=O)N[C@@H](Cc1c[nH]c2ccccc12)C(=O)N[C@@H](Cc1c[nH]c2ccccc12)C(=O)N[C@@H](CO)C(=O)N[C@@H](CC(C)C)C(=O)O | Transcriptional regulator ComR | – | Streptococcus mutans | – | 9400 |
| autoinducing peptide I | AgrC-I sensor His mutant (Staphylococcus aureus) | reporter gene, agonist | Staphylococcus aureus P3-blaZ reporter, Staphylococcus aureus | – | > 10000 |
| O=C1Nc2cc(Cl)c(Cl)cc2N2CCNCC12 (stereo not drawn) | HTR2B (Homo sapiens, UniProt P41595) | calcium signal, agonist | – | – | 16 |
| Clc1ccc2c(N3CCN(CCCN4CCN(c5ccnc6cc(Cl)ccc56)CC4)CC3)ccnc2c1 | CRT (Plasmodium falciparum, UniProt W7FI62) | – | – | – | 200 |
| O=C(O)[C@H]1O[C@H](OP(=O)(O)OP(=O)(O)OC[C@H]2O[C@@H](n3ccc(=O)[nH]c3=O)[C@H](O)[C@@H]2O)[C@H](O)[C@@H](O)[C@@H]1O | P2Y purinoceptor 14 (P2RY14, Homo sapiens, UniProt Q15391) | cAMP accumulation inhibition, agonist | HEK293 expressing P2RY14 | dose as dendrimer conjugate, together with: forskolin 30 µM | 370 ± 70 |
| C/C=C(\N)C(=O)CCCCCCC | cqsS (Vibrio campbellii, UniProt A7N6S2) | bioluminescence, agonist | Vibrio harveyi, wild type | – | 24 ± 7 |
| BP(=O)(OC[C@H]1O[C@@H](n2ccc(=O)[nH]c2=O)[C@H](O)[C@@H]1O)OP(=O)(O)OP(=O)(O)OP(=O)(O)OC[C@H]1O[C@@H](n2ccc(=O)[nH]c2=O)[C@H](O)[C@@H]1O (stereo partly drawn) | P2RY2 | intracellular calcium rise, agonist | 1321N1 expressing human P2Y2 | 37 °C | > 100000 |
| CC(C)C[C@H](NC(=O)[C@H](CO)NC(=O)[C@H](Cc1c[nH]c2ccccc12)NC(=O)[C@H](Cc1c[nH]c2ccccc12)NC(=O)[C@H](CC(=O)O)NC(=O)[C@@H](NC(=O)CN)C(C)C)C(=O)O | Transcriptional regulator ComR | – | Streptococcus mutans | – | 3900 |
| [BH3-][P+](O)(OP(=O)(O)OC[C@H]1O[C@@H](n2ccc(=O)[nH]c2=O)[C@H](O)[C@@H]1O)OP(=O)(O)OP(=O)(O)OC[C@H]1O[C@@H](n2ccc(=O)[nH]c2=O)[C@H](O)[C@@H]1O (stereo partly drawn) | P2RY2 | intracellular calcium rise, agonist | 1321N1 expressing human P2Y2 | 37 °C | > 100000 |
| CC(C)[C@H](NC(=O)[C@@H]1CSSC[C@H](NC(=O)[C@@H](N)Cc2c[nH]cn2)C(=O)N[C@@H](Cc2ccccc2)C(=O)N[C@H](Cc2c[nH]c3ccccc23)C(=O)N[C@@H](CCCCN)C(=O)N[C@@H]([C@@H](C)O)C(=O)N1)C(=O)O | SSTR3 (Homo sapiens, UniProt P32745) | – | – | – | 4200 |
| O=C1C2=C(CCN(Cc3ccccc3)C2)N2CCN=C2N1Cc1ccc(C(F)(F)F)cc1 | CLPP (Homo sapiens, UniProt Q16740) | FITC-casein degradation, activator | – | without ClpX | 460 |
| [BH3-][P+](O)(OP(=O)(O)OC[C@H]1O[C@@H](n2cnc3c(N)ncnc32)[C@H](O)[C@@H]1O)OP(=O)(O)OP(=O)(O)OC[C@H]1O[C@@H](n2ccc(=O)[nH]c2=O)[C@H](O)[C@@H]1O (stereo partly drawn) | P2RY2 | intracellular calcium rise, agonist | 1321N1 expressing human P2Y2 | 37 °C | > 100000 |

| Molecule | target | test | test system | conditions | EC50 [nM] |
| --- | --- | --- | --- | --- | --- |
| CCN(CC)CCCC(C)NC(=O)c1ccc2c(c1)C(=O)c1ccccc1C2=O (stereo not drawn) | ESR2 (Homo sapiens, UniProt Q92731) | binding, fluorescence polarization competition | – | – | ~234 |
| CCCN(C/C=C/I)C1CCc2ccc(O)cc2C1 (stereo not drawn) | ADRA2A (Homo sapiens, UniProt P08913) | G protein activation, agonist, BRET, measured: Gαi1 | HEK293T, transfected | Emax below 50% | 80 ± 20 |
| CCCN1CCc2cc(OC)cc3c2[C@H]1Cc1ccc(O)c(O)c1-3 | Drd2 (Rattus norvegicus, UniProt P61169) | cAMP, agonist | – | – | 0.3 |
| BP(=O)(OC[C@H]1O[C@@H](n2ccc(=O)[nH]c2=O)[C@H](O)[C@@H]1O)OP(=O)(O)OP(=O)(O)OC[C@H]1O[C@@H](n2ccc(=O)[nH]c2=O)[C@H](O)[C@@H]1O (stereo partly drawn) | P2Y purinoceptor 1 | calcium signal, agonist, fluorescence | – | – | 4400 |
| O=C(CCC/C=C\C/C=C\C/C=C\C/C=C\CCCCCN=C=S)NC1CC1 | Cnr1 (Rattus norvegicus, UniProt P20272) | receptor internalization, agonist | HEK293 | 30 min, 37 °C | 3.4 |
| O=S(=O)(c1ccc(O)cc1)c1ccc(O)cc1 | ESR1 | reporter gene, agonist, luciferase | – | – | 2200 |
| C=C[C@@]1(C)CC(=O)[C@]2(O)[C@@]3(C)[C@@H](O)CCC(C)(C)[C@@H]3[C@H](O)[C@H](OC(C)=O)[C@@]2(C)O1 | Relaxin receptor 1 (RXFP1, Homo sapiens, UniProt Q9HBX9) | agonist | – | – | 47 |
| C[C@@]1(O)CC[C@@]2(C)[C@@H](CC[C@@H]3[C@@H]2CC[C@]2(C)[C@@H](c4cc(CO)on4)CC[C@@H]32)C1 | Gamma-aminobutyric acid receptor subunit alpha-2/beta-1/gamma-2 (Homo sapiens, UniProt P18505+P18507+P47869) | GABA current potentiation, positive modulator, two-electrode voltage clamp | Xenopus laevis oocytes | 30 s preincubation, together with: GABA EC10 | 340 ± 180 |
| [BH3-][P+](O)(OP(=O)(O)OC[C@H]1O[C@@H](n2ccc(=O)[nH]c2=O)[C@H](O)[C@@H]1O)OP(=O)(O)OP(=O)(O)OC[C@H]1O[C@@H](n2cnc3c(N)ncnc32)[C@H](O)[C@@H]1O (stereo partly drawn) | P2RY2 | intracellular calcium rise, agonist | 1321N1 expressing human P2Y2 | 37 °C | > 100000 |
| Clc1ccc(Cl)c(-c2c(Cl)ccc(Cl)c2Cl)c1Cl | ESR1 | reporter gene, agonist, luciferase | – | – | 2900 |
| O=c1ccn([C@@H]2O[C@H](COP(=O)(O)OP(=O)(O)OP(=O)(O)Oc3ccccc3)[C@@H](O)[C@H]2O)c(=O)[nH]1 | P2Y purinoceptor 4 (P2RY4, Homo sapiens, UniProt P51582) | PLC activation, agonist | 1321N1, transfected | – | > 10000 |
| CC(C)C[C@H](NC(=O)[C@H](CCCNC(=N)N)NC(=O)[C@H](CCC(N)=O)NC(=O)[C@@H]1CCCN1)C(=O)N[C@@H](CCCNC(=N)N)C(=O)N[C@@H](Cc1c[nH]c2ccccc12)C(N)=O | Short neuropeptide F receptor (Drosophila melanogaster, UniProt Q9VW75) | calcium mobilization, agonist | HEK-293T transfected, Gα16 | 37 °C | 5.55 ± 3.95 |
| BP(=O)(OC[C@H]1O[C@@H](n2cnc3c(N)ncnc32)[C@H](O)[C@@H]1O)OP(=O)(O)OP(=O)(O)OC[C@H]1O[C@@H](n2cnc3c(N)ncnc32)[C@H](O)[C@@H]1O (stereo partly drawn) | P2Y purinoceptor 1 | calcium signal, agonist, fluorescence | – | – | 760 |
| CC(C)[C@H](NC(=O)[C@@H]1CSSC[C@H](NC(=O)[C@H](CC(N)=O)NC(=O)[C@@H](N)Cc2ccc(O)cc2)C(=O)N[C@@H](Cc2c[nH]cn2)C(=O)N[C@H](Cc2c[nH]c3ccccc23)C(=O)N[C@@H](CCCCN)C(=O)N[C@@H]([C@@H](C)O)C(=O)N1)C(=O)O | SSTR2 (Homo sapiens, UniProt P30874) | – | – | – | 200 |
| [BH3-][P+](O)(OP(=O)(O)OC[C@H]1O[C@@H](n2cnc3c(N)ncnc32)[C@H](O)[C@@H]1O)OP(=O)(O)OP(=O)(O)OC[C@H]1O[C@@H](n2cnc3c(N)ncnc32)[C@H](O)[C@@H]1O (stereo partly drawn) | P2RY2 | intracellular calcium rise, agonist | 1321N1 expressing human P2Y2 | 37 °C | > 100000 |
| CCCCC/C=C\C/C=C\C/C=C\C/C=C\CCCC(=O)NCCO | GPR119 (Homo sapiens, UniProt Q8TDV5) | cAMP accumulation, agonist | HEK293 | 30 min | 19700 |
